# Assay results collected from several papers.
# Compare with care: the assays were run in different laboratories. Numbers after ± are the reported error.
# B1: ENAH EVH1 domain 1-113 (Homo sapiens, UniProt Q8N8S7); chain MSEQSICQARAAVMVYDDANKKWVPAGGSTGFSRVHIYHHTGNNTFRVVGRKIQDHQVVINCAIPKGLKYNQATQTFHQWRDARQVYGLNFGSKEDANVFASAMMHALEVLNS
# Chain of UniProt P06730 (whole entry, looked up): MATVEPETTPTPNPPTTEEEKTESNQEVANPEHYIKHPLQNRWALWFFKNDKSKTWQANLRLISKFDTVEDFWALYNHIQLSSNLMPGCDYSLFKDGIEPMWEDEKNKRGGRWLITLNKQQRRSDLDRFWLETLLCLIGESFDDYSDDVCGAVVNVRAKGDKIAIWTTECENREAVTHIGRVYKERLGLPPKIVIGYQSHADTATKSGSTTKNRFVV
# Chain of UniProt Q14155 (whole entry, looked up): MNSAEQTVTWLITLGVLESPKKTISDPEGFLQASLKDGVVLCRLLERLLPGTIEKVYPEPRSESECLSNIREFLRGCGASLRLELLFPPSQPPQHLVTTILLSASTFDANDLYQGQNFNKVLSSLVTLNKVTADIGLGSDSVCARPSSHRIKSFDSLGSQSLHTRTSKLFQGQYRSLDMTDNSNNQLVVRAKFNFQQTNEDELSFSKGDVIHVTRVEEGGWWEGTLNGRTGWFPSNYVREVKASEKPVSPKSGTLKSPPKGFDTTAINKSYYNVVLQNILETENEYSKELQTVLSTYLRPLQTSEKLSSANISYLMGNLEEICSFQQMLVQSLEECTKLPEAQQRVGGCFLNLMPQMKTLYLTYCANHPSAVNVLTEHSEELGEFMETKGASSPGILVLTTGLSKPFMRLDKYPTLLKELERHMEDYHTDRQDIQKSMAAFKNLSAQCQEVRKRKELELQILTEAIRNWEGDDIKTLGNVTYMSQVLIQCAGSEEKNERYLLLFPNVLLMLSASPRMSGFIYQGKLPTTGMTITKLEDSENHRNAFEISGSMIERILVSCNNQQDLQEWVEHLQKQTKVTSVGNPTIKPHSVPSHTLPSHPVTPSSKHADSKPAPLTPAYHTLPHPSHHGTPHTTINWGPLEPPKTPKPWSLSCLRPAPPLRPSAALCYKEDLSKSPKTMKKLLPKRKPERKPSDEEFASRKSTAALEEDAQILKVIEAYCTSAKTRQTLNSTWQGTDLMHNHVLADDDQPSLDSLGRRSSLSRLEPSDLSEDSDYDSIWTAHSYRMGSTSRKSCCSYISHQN
# Chain of UniProt Q01727 (whole entry, looked up): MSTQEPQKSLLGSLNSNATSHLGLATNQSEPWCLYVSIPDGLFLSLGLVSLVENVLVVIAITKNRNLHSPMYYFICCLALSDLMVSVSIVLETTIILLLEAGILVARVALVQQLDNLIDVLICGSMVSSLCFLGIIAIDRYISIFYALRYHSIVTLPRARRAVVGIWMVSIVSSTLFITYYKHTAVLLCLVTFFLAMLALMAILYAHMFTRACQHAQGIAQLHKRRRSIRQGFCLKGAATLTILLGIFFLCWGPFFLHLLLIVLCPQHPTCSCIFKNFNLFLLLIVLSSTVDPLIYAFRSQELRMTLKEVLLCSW
# Chain of UniProt P25103 (whole entry, looked up): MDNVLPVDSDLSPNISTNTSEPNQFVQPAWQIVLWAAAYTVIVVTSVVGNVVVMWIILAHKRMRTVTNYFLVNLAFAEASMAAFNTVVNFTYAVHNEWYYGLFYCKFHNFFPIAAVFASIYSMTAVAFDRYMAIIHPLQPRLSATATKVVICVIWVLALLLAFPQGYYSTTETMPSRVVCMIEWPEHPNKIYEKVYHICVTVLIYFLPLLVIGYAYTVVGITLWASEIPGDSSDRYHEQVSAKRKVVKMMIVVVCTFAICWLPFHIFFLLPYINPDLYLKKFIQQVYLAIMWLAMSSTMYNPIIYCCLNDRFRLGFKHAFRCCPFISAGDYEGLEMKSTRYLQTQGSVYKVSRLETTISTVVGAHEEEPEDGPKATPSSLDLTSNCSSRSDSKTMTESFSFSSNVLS
# Chain of UniProt Q9NUX5 (whole entry, looked up): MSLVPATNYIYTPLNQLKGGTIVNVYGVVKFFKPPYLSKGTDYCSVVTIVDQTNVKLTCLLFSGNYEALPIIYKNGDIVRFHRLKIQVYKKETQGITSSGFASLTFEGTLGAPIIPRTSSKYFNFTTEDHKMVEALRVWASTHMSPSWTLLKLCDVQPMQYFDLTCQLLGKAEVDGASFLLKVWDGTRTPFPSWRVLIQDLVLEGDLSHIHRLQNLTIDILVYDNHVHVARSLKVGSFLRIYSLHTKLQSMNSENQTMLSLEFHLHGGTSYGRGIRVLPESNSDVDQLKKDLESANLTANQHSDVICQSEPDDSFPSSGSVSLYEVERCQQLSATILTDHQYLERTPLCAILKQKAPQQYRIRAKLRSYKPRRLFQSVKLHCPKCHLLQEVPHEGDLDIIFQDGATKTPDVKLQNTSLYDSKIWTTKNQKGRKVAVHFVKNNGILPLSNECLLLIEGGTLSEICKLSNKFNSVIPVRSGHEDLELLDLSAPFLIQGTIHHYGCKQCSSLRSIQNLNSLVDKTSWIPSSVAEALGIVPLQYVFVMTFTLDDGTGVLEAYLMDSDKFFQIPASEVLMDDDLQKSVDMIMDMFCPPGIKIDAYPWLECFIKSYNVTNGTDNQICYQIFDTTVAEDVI
# Chain of UniProt Q9Y2X7 (whole entry, looked up): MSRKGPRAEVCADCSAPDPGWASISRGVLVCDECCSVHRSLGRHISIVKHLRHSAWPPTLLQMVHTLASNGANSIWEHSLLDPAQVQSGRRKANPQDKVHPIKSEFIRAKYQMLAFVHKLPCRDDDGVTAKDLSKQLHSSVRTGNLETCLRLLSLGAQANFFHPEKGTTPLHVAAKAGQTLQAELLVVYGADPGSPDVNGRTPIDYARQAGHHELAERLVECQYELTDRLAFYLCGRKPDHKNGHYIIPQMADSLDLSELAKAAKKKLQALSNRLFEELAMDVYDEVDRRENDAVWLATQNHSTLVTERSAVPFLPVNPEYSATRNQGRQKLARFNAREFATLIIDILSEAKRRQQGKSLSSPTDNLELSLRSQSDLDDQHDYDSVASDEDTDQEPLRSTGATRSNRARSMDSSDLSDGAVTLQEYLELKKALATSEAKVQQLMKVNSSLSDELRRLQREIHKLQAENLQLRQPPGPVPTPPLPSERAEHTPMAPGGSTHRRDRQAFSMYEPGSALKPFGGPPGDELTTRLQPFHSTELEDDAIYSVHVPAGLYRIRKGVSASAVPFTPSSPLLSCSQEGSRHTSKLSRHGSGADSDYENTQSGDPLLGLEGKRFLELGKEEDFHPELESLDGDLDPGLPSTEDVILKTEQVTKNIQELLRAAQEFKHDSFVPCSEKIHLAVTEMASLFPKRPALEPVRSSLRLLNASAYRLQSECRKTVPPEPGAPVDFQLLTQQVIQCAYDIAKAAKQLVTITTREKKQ
Molecule,target or system,test,test system,conditions,how to read,quantity,value
ACD/Tpp1 chimera fragment P1 region swapped for mouse (Homo sapiens),"POT1 (Homo sapiens, UniProt Q9NUX5)",pull-down,,,"reference: wild-type TPP1, higher = stronger binding to POT1",relative binding,40 ± 6.2%
SQETFSDLWKLLPENN,human cyclin E1-Cln2 fusion,"cell growth, competitive growth sequencing","peptide, Saccharomyces cerevisiae",peptide tiling library,direction not given,enrichment score,1.71
"EIF4G1 fragment x, stapled at Glu615","EIF4E (Homo sapiens, UniProt P06730)",SPR,,,,kon,330000 M⁻¹ s⁻¹
Aβ42 (UniProt P05067),"Grm5 (Rattus norvegicus, UniProt P31424)","intracellular Ca2+ increase, Fluo-4 AM calcium imaging",,"500 nM, 5-30 min, abolished by mGluR5 antagonist","reference: control, higher = more responding neurons",fold of responding neurons,2.4 fold
XPO1/RAN/RANBP1 GTP-bound Ran complex Q69L,"UBTF (Homo sapiens, UniProt P17480)",SPR,,,,Kd,1.71 µM
"TMED10 (Homo sapiens, UniProt P49755)","TMED9 (Homo sapiens, UniProt Q9BVK6)",cross-linking MS,cell fractions,together with: DSSO,,cross-linked residues,K145 to K160
CYP17A1 C22K/P23T/R20A/R21K (Homo sapiens),CC(=O)[C@H]1CC[C@H]2[C@@H]3CCC4=CC(=O)CC[C@]4(C)[C@H]3CC[C@]12C,steady-state kinetics,,"37 °C, truncated form, together with: progesterone 0 – 50 µM, phosphatidylcholine",,Km,3.7 µM
EGF mature (Homo sapiens),"EGFR 25-645, fluorescent label (Homo sapiens, UniProt P00533)",MST,,,,Kd,0.397 ± 0.094 µM
tetraubiquitin (UniProt P0CG48),DDX58 N-terminal CARDs (Homo sapiens),"IRF3 dimerization, activator",cell-free system,RIG-I(N)/Ub4 complex,,EC50,0.000404 µM
"alpha-MSH fragment fragment, N-acetyl, D-Phe, C-terminal amide","Mc1r (Mus musculus, UniProt Q01727)","cAMP accumulation, agonist",HEK293,,,EC50,0.0141 µM
B1 (ENAH EVH1 domain 1-113),PCARE peptide (Homo sapiens),ITC,,,,Kd,4.8 µM
glucagon,"GLP1R (Homo sapiens, UniProt P43220)","GLP-1R activation, CRE luciferase reporter, agonist",HEK293,stable human GLP-1R expression,,EC50,> 1 µM
"APP Aβ1-42, HiLyte Fluor 488 label (UniProt P05067)","microtubules, taxol-stabilized (Sus scrofa, UniProt P02550)",fluorescence polarisation,,"quadratic fit, together with: taxol",,Kd,2.72 ± 0.13 µM
"TAC1 mature Substance P, C-terminal amide (Homo sapiens)","TACR1 2-335 (Homo sapiens, UniProt P25103)",1D 19F-NMR,,,,Kd,16 µM
"ARHGEF7 (Homo sapiens, UniProt Q14155)","GIT1 (Homo sapiens, UniProt Q9Y2X7)",cross-linking MS,purified complex,together with: DSSO,,cross-linked residues,K692 to K131

# For quick reference, copied from above:
Molecule,target or system,test,test system,conditions,how to read,quantity,value
SQETFSDLWKLLPENN,human cyclin E1-Cln2 fusion,"cell growth, competitive growth sequencing","peptide, Saccharomyces cerevisiae",peptide tiling library,direction not given,enrichment score,1.71
XPO1/RAN/RANBP1 GTP-bound Ran complex Q69L,"UBTF (Homo sapiens, UniProt P17480)",SPR,,,,Kd,1.71 µM
